Measurements gathered from unrelated publications.
Compare with care: the assays were run in different laboratories. ± marks the error that the study gave.

Under “apparent parent volume Vp/F”, `C=CC(=O)Nc1cc(Nc2nccc(-c3cn(C)c4ccccc34)n2)c(OC)cc1N(C)CCN(C)C` is recorded as 1150 L (population PK model; human, plasma; oral, dose not given).
Under “apparent volume of distribution (Vd/F)”, `O=C(O)CCC(=O)O.[2H]C([2H])([2H])Oc1cc(C)c2[nH]ccc2c1CN1CC[C@@H](C2CC2)C[C@H]1c1ccc(C(=O)O)cc1` is recorded as 66 L (healthy humans, fed; oral, 200 mg, single dose, high-fat meal).
`Cc1cc(C)c(CNC(=O)c2cc(Cl)c3c(c2C)O[C@@](C)([C@H]2CC[C@H](N(C)C)CC2)O3)c(=O)[nH]1`: “apparent central volume” 42.5 L (population PK model; human; oral, dose not given).
For `Cn1cc(-c2cn3nccc3c(-c3cnn([C@]4(CC#N)C[C@@H](C#N)C4)c3)n2)cn1`, “apparent volume Vz/F” read 2730 L (healthy humans fasted, plasma; 400 mg single dose, geometric mean).
Under “apparent peripheral volume”, `CNC(=O)c1ccc(N2C(=S)N(c3ccc(C#N)c(C(F)(F)F)c3)C(=O)C2(C)C)cc1F` is recorded as 48.8 L (population PK base model; human, male; oral, dose not given).
`NC[C@@]1(CC(=O)O)[C@@H]2CC[C@H]3C[C@@H]2[C@@H]1C3`: “apparent volume of distribution” 48.8 L (human, severe renal impairment, plasma; oral, 20 mg single dose, geometric mean).
`C[C@H](Cn1cnc2c(N)ncnc21)OCP(=O)(O)O`: “apparent volume of distribution” 2330 L (population PK model; human, plasma; oral, dose not given, reduced model estimate).
Under “apparent volume of distribution”, `Cc1cc(C)c(CNC(=O)c2cc(Cl)c3c(c2C)O[C@@](C)([C@H]2CC[C@H](N(C)C)CC2)O3)c(=O)[nH]1` is recorded as 836 L (healthy male human, plasma; oral, 25 mg, alone, before itraconazole).
`CCCCCCCCCCCCCCCC(=O)N[C@@H](CCC(=O)NCCCC[C@@H]1NC(=O)[C@H]([C@@H](C)CC)NC(=O)[C@@H](NC(=O)[C@@H]2CCCN2C(=O)[C@H](Cc2ccccc2)NC(=O)[C@H](Cc2c[nH]cn2)NC(=O)[C@@H](NC(=O)[C@H](CC(=O)O)NC(=O)CC(C)C)[C@@H](C)O)CSSC[C@@H](C(=O)N[C@@H](CCCCN)C(N)=O)NC(=O)CNC(=O)[C@H](CCCCN)NC(=O)[C@H](CO)NC(=O)[C@H](CCCNC(=N)N)NC(=O)[C@@H]2CCCN2C(=O)[C@H](CCC(=O)O)NC(=O)[C@H](Cc2ccccc2)NC1=O)C(=O)O`: “apparent volume Vz/F” 79.2 ± 59.7 L (healthy human, plasma; subcutaneous, 20 mg, single dose, aqueous formulation).
`NCC(=O)Nc1cncc(-c2nn3c(=O)cc(N4CCNCC4)nc3s2)c1`: “apparent peripheral volume (Vp/F)” 392 L (population PK model; human; subcutaneous, dose not given, geometric mean).
`C[C@@H](Oc1ccc(S(C)(=O)=O)cc1C(=O)N1C[C@@H]2C[C@]2(c2cc(C(F)(F)F)on2)C1)C(F)(F)F`: “apparent clearance (CL/F)” 71.6 mL/min (young humans, plasma; oral, 75 mg single dose, geometric mean).
`C=CC(=O)Nc1cc(Nc2ncc(C(=O)OC(C)C)c(-c3cn(C)c4ccccc34)n2)c(OC)cc1N(C)CCN(C)C`: “apparent central volume” 2400 L (healthy human volunteers; oral, dose not given, capsule C vs capsules A and B).
For `C=CC(=O)NC1CCN(c2ncc3ncnc(Nc4ccc(Oc5ccc6c(c5)ncn6C)c(C)c4)c3n2)CC1`, “apparent oral clearance” read 151 mL/min (human; oral, 60 mg single dose, geometric mean).
Under “apparent oral clearance”, `CC(=O)N(C)[C@H]1CCN(C(=O)c2cnc3c(c2)C[C@](C)(c2ccc(F)cc2)N3)C1` is recorded as 347 mL/min (healthy male human, plasma; oral, 30 mg once daily, steady state, geometric mean).
`Nc1nc2cccc(-c3ccc(CN4CCS(=O)(=O)CC4)cc3)n2n1` — result for “apparent central volume”: 81.3 L (population PK bootstrap median; human; dose not given).
`Cc1nc(Nc2ncc(C(=O)Nc3c(C)cccc3Cl)s2)cc(N2CCN(CCO)CC2)n1` — result for “apparent oral clearance”: 2240 ± 871 mL/min/m² (human patients, plasma; 65 mg/m^2, day 8).
For `C=C[C@@H]1C[C@]1(NC(=O)[C@@H]1C[C@@H](Oc2ncc(OC)c3ccc(Cl)cc23)CN1C(=O)[C@@H](NC(=O)OC(C)(C)C)C(C)(C)C)C(=O)NS(=O)(=O)C1CC1`, “apparent volume of distribution” read 55 L (population PK base model; human; oral, dose not given).
`CNC(=O)c1c(C)oc2cc(Oc3ncnc4cc(OC)c(OC)cc34)ccc12` — result for “apparent volume of distribution”: 50.7 L (population PK base model; human; oral, dose not given).

Excerpt of the above:
Under “apparent oral clearance”, `CC(=O)N(C)[C@H]1CCN(C(=O)c2cnc3c(c2)C[C@](C)(c2ccc(F)cc2)N3)C1` is recorded as 347 mL/min (healthy male human, plasma; oral, 30 mg once daily, steady state, geometric mean).
`Nc1nc2cccc(-c3ccc(CN4CCS(=O)(=O)CC4)cc3)n2n1` — result for “apparent central volume”: 81.3 L (population PK bootstrap median; human; dose not given).
`Cc1nc(Nc2ncc(C(=O)Nc3c(C)cccc3Cl)s2)cc(N2CCN(CCO)CC2)n1` — result for “apparent oral clearance”: 2240 ± 871 mL/min/m² (human patients, plasma; 65 mg/m^2, day 8).
